Experimental data from different studies.
Numbers after ± are the reported error.

Structure (SMILES)	species	sample	route	dose	time	notes	concentration
CSc1cc(Oc2ccnc3[nH]c(=O)cnc23)ccc1NC(=O)Nc1cc(C(C)(C)C)nn1-c1ccccc1	nude mouse (female)	plasma	oral	20 mg/kg	1 h after last dose	end of therapy	69.4 µM
O=C(N[C@H](Cc1c[nH]c2ccccc12)C(=O)Nc1ccncc1)c1ccc(-c2ccc(F)c(Cl)c2)cc1F	Swiss Webster mouse, female	muscle	oral	50 mg/kg	8 h	20% HPβCD vehicle	4.18 µM
O=S(=O)(c1ccc(-c2ccc3nccc(Nc4ccncn4)c3c2)cc1)N1CCOCC1	female BALB/c mouse	brain	intraperitoneal	10 mg/kg	0.25 h		69.6 ng/mL
COc1ccc2c3c([nH]c2c1)[C@H](CC(C)C)N1C(=O)[C@H](CC(=O)NC(C)C)NC(=O)[C@@H]1C3	wild-type mouse, male	serum	oral	100 mg/kg	0.5 h		37 µM
CN(C)C(=O)c1cc2cnc(Nc3ccc(-c4ccc5c(=O)cc(N6CCOCC6)oc5c4)cc3)nc2n1C1CCCC1	BALB/c mouse	lung	oral	20 mg/kg	24 h		7.1 ± 4.2 ng/g
O=C(N[C@H](Cc1c[nH]c2ccccc12)C(=O)Nc1ccncc1)c1ccc(N2CCN(c3ccc(F)cc3F)CC2)cc1F	Swiss Webster mouse, female	lung	oral	50 mg/kg	2 h	20% Kolliphor vehicle	63.5 µM
CC(C)(C)c1cc(NC(=O)Nc2ccc(Oc3ccnc4[nH]c(=O)cnc34)cc2F)n(-c2ccccc2)n1	NSG mouse (female)	plasma	oral	20 mg/kg	1 h after last dose	end of therapy	24.9 µM
CN1CCCC1CCNS(=O)(=O)c1ccc2c(c1)CN(CC1CCCCC1)CC2 (centres unmarked)	THY-Tau22 mouse	plasma	oral in diet	0.002% in diet	6 months	sampled at 8 p.m.	4.36 ng/mL

A few entries again:
Structure (SMILES)	species	sample	route	dose	time	notes	concentration
O=C(N[C@H](Cc1c[nH]c2ccccc12)C(=O)Nc1ccncc1)c1ccc(-c2ccc(F)c(Cl)c2)cc1F	Swiss Webster mouse, female	muscle	oral	50 mg/kg	8 h	20% HPβCD vehicle	4.18 µM
